Published values collected from several papers.
Parts stem from different laboratories: compare values within a part only.

Set 1 — method: protein binding microarray; molecule type: double-stranded DNA, one strand shown; matrix: in vitro; concentration: not given; baseline: not given; direction: higher = stronger binding; quantity: E-score
Target: Histone acetyltransferase KAT6A, winged helix 1, GST fusion (KAT6A, Homo sapiens, UniProt Q92794, residues 1-85)
Notes: 8-mer, flanks averaged, mean of 2 arrays, mostly near background
Construct (chain): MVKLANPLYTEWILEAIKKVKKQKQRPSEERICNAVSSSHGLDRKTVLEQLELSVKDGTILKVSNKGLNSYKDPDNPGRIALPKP
TCCTTCCA: -0.209
AACCTAGC: -0.0986
CATCTTGA: -0.298
ACGTAGCT: -0.0747
CCCCCAAA: -0.261
CCGAAGTA: -0.00102
ATACCCGG: 0.237
ACCACTTA: -0.0954
TAGGTGCA: -0.214
CATTTCAA: -0.178
GACCAATC: -0.154
ACGCTCCA: 0.0679
ATATGACG: 0.023
GTTCTGGA: -0.123
ATCGCGCG: 0.425
CCGGTGCA: 0.196
CTAACAAG: -0.0821
CCATGTAA: 0.153
ATGCATAA: -0.0248
AATCCCAA: -0.212
ATGACACA: -0.14
ACTTTACA: -0.0106
CAAGCGTC: 0.227
CTATATCC: -0.111
CCATTTGC: -0.145

Set 2 — method: competition protein-binding microarray; molecule type: double-stranded DNA, one strand shown; matrix: in vitro; concentration: 2 µM; together with: Cbf1 competitor, 0.05 µM; direction: higher = stronger binding; quantity: fluorescence intensity; all sequences stand within: … GTCTTGATTCGCTTGACGCTGCTG
Target: Phosphate system positive regulatory protein PHO4, full length, GST-tagged (PHO4, Saccharomyces cerevisiae, UniProt P07270, residues 1-312)
Notes: whole 60-bp probe, lowest competitor level
Construct (chain): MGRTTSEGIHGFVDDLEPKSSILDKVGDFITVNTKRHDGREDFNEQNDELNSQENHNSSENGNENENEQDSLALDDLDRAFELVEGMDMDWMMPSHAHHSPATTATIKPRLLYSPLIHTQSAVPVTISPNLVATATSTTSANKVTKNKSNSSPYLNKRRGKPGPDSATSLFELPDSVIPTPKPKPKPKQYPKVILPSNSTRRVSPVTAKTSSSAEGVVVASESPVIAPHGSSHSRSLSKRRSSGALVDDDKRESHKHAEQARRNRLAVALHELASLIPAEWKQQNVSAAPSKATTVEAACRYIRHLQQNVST
GGCCATCCGCTCCGTCACGGGCCAATCGAAGCTCTT: 5730 a.u.
AAATTACTAAGTTGCAGTGTGGGTGACGCCGTATGA: 5130 a.u.
CCAGTAGAGTGGTAAAGCGTGCCTACGGCGGTGTTG: 8820 a.u.
CGCTTCATATAATGTTTTTTGATTTGCAGCAAATGC: 3710 a.u.
TGCGCAACAACTTGTCACAGAACTTTATGTCTAGAA: 3150 a.u.
TTTTACGTTTGAGGCCTCGTGGCCGAAATGGTACGC: 10800 a.u.
TAAACTTCGAATTCCTTCGTGCTTTACTAAGACAAA: 5820 a.u.
AAGCGGATGGACTGGCACGCTCACCATCTGGGTTGG: 8110 a.u.
ACAACGTAAAACTTGCATGTGAGGCTTAGGTGATTT: 7500 a.u.
TCAAAGCCTTACTGGCACGCATCCTGATGGGGACGC: 8270 a.u.
GTCTTGTCTCATTGGGAGGTGGGTGTCCCCACTTCA: 4490 a.u.
TCAACTGGTCTAGCCCATGTGTCTTTAGTTTCCAAG: 9410 a.u.
CTAACGAAGGTTTGATTAGTGGGTGACAAGCCAAGT: 3520 a.u.
TGCGCAACAACTTTTCACGTGTGATTATGTCTAGAA: 12900 a.u.
CAGTCTACCAAGGTGAACGTGTCCACTGTAAAGAAA: 9360 a.u.
TGCGCAACAACTTGAAGGGTGGGTGTATGTCTAGAA: 4970 a.u.
CAAGCCCCAAGTACCCACGTTGTTGAGGTGTTTTTT: 14000 a.u.
TCCCTTCAAACTCACCACGTGATGGTCTAGACGTTG: 15200 a.u.
TCAAGTAGAATACTACACGTGCAAACGGTAGCAAGC: 16100 a.u.
AAATTACTAAGTTGCATAGTGGGTGACGCCGTATGA: 4450 a.u.
TGTTTCGCGGCGTTACACGTGAGATCCTATTATTTC: 10100 a.u.
CAAACTGAGACCTTCCACGTTGTGGGCACCACCACT: 11100 a.u.
AAAGCGGTAATTTGATACGTGGGTGCAGATATCTAT: 6900 a.u.
CGTCTCCCGCAAAGCCACGCGCCAGCTGACTGGCTC: 9330 a.u.
GTATTTCCGGTATCGCACGTGGTGATGGATTTGATC: 19600 a.u.

Set 3 — method: protein-binding microarray; molecule type: double-stranded DNA, one strand shown; matrix: in vitro; concentration: 250 nM; notes: 60-bp whole probe; together with: salmon DNA 0.4 mg/ml; baseline: random background probes; direction: higher = stronger binding; quantity: log fluorescence; all sequences stand within: GCCTAGCAC … GTCTTGATTCGCTTGACGCTGCTG
Target: Interferon regulatory factor 5, full length, phosphomimetic (IRF5, Homo sapiens, UniProt Q13568-2, residues 1-514, K96S/S451D/S453D/S456D/S462D)
TTAGATTTCGGGTTTCGATTTGTGCTA: 8.07 z-score
TTCCCTCTCCCCTCTTGTGCTGTGCTA: -0.0567 z-score
TCACATCTTCCTCTGCCACTGTGCTAG: 0.561 z-score
TTAAATTTTAATAACACAGAGTGCTAG: 0.479 z-score
GACGGTATCGGGAGTGGGGACGTGCTA: 0.99 z-score
GACGGACTGGGGTATCGGGCCGTGCTA: -0.173 z-score
TTAGATATCCGTCTCGATTAGTGCTAG: 0.701 z-score
TCCTTTTAATTTTTAACGAGGTGCTAG: 0.515 z-score
TTAGATTTCTGTTTCGATTAGTGCTAG: 9.6 z-score
GACGGTTGCGGGACTGGGGACGTGCTA: -0.182 z-score
TTGATTGTGGCTTTTTAATGGTGCTAG: -0.142 z-score
ATAGATTTCAGACTGGATTAGTGCTAG: 0.357 z-score
GACGGATTCGGGTTTCGGGACGTGCTA: 2.1 z-score
TTAGGACTGGGCTTTCGGTTAGTGCTA: 7.13 z-score
GACGGACTGTGGTATCGGGACGTGCTA: 0.375 z-score
TTAGATATCGGACTGGGTTAGTGCTAG: 0.919 z-score
TTAGATATCAGACTGGATTGGTGCTAG: 0.257 z-score
GACGATTTCAGTCTCGGGACGTGCTAG: 1.3 z-score
TTAGGACTGCTTCTCATTTAGTGCTAG: -0.222 z-score
TTAGGTTGCGACTTTCGGTTAGTGCTA: 9.13 z-score
TTAGGTGTCCTTATCCTTTAGTGCTAG: -0.186 z-score
TCAACTCCAGTTCTGGGACTGTGCTAG: -0.387 z-score
TCAATTCTCTGCTTGGGACTGTGCTAG: 0.12 z-score
TATTACCTCATCTTCCTCTGCGTGCTA: 0.623 z-score
GACGGTTTCGGTTTCGGGGCGTGCTAG: 10.5 z-score

Set 4 — method: RNA Bind-n-Seq; molecule type: RNA; matrix: in vitro; concentration: not given; notes: RNA with constant flanks, ends assumed; baseline: input RNA pool; direction: higher = stronger binding; quantity: bound/input enrichment
Target: RING finger protein unkempt homolog, zinc fingers 1-6, GST-SBP tag (UNK, Homo sapiens, UniProt Q9C0B0, residues 30-357)
Sequence of UniProt Q9C0B0 (30-357, looked up): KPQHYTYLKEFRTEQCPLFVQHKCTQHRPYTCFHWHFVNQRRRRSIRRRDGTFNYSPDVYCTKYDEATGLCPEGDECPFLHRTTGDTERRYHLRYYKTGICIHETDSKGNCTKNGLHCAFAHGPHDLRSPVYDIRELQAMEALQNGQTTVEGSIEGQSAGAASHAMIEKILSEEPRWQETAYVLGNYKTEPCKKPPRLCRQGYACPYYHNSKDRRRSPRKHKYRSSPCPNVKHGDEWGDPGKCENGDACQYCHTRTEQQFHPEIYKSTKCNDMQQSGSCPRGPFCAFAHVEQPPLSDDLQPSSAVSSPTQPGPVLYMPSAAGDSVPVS
All sequences stand within: GGGAGUUCUACAGUCCGACGAUC … CAACAGAGGAUUGAGCAUCA
CCUCCAUCUCGGAGCUGUGGCUGCUGUGGCUGGCUCUGGCCUGCCAGUGCGUUAUAGCCCUCCGGCCUAUUGAACUUACUCUCUAAGAGAGGAUAGGACACCAGGAGAGGCUGCAGCCCU: 0.127 ratio
CUUUUGCAGUUUGACACUAAGAUAACUUCUGUGUGCAUUUUUCUAUGCUUUUUUAAAAACCCGUUUCAUUUCAUUUUCAUGAGAUGUUUGGUUUAUAAGAUCUGAGGAUGGUUAUAAAUA: 0.167 ratio
UUCCUGUUACCUUGAAAAAAUAAAAAUGUUAACAGGAAUGCAGUGUGCUCAUUCUCCCUAAACCGUAAAUCCCACUGUAUACAAAACUGUUCUCUUGUUCUGCCUUUUAAAAUGUUCAUG: 0.208 ratio
UCAUUGUAAAUUACCUUUGUGUGUACAUUUUUACUGUAUUUGAGACAUUUUUUGUGUGUGACCCGUUAAUUUUGCAGGAUGUGCCAUAUCAUUGAACGGAACUAAAGUCUGUGACAGUGG: 0.303 ratio
CUUCAAACCCCAGCUUCCACUUUCCUUGCCAUCUUCCCUCCUGGGCAUUGUUUUGCUGUCAUCCGAAGGAAACCAUUUUUUUUUUUCCCAAUUUACCCUGUUUAACCUGUGAGAGUCUCU: 0.966 ratio
AGAAGCUUCCUAAGGAACAAGCAAGUUGAAUAGAGAAAAUAGUGAUCAAUAAUAGGCAUUUCCGUGGUCUUUUUAAUGUUUUCUGCUGCGGAACAUUUCAAGAUUUAUUGAUUUCCUCCU: 2.47 ratio
CUCCCUUUUCACCCACCUUUCCUCCCUCACCUCUCCUCACCUCCACCCCCUCCCCAGAGCACCCGUCAUGCCGCAAAUGCUAGGAAGUGCCAUUUUCAUUUUCUCCACUGUGCGUGUGUG: 0.659 ratio
AACAGGAUCAGUUAACUAUUGCAUUUAUAUGUACCGUAGGCUUUGUAUUCAAAAAUUAUCUACCGCUAAGUACACAAUAAGCAAAAACAAAAAGAAAAGAAAAUUUUUGUAGUAGCGUUU: 0.78 ratio
UCUGCUCGAAGACUGGACCCAGAGUACUGGAAGACCAUCCUGAGUUGUGUAUAUGUUUUUACCGUAUUUGGGUUUACGUCUUUCAUUAUGGUUAUUGUUCAUGAGCGUGUGCCUGACAUG: 0.128 ratio
UGGACUUUGAGUUUGCUGCAUGGCAGAUGCUCUACCUGUUUACCUCUCCUCAGAGGGUUUACCGAAACUUUCACUACCGGAAGCAAACAAAGGACCAGUGGGCCAGAGAUGACCCUGCCU: 0.108 ratio
CUGCUGCAGGGUUGGUACAUUGUGACCUAUGCCUUGGGGAUCUACCAUCUAAAUCUUUUCACCGCUUUUCUUUCUCCCAAAGUGGAUCCUUCCUUAAUGGAAGACUCAGAUGACGGUCCU: 0.235 ratio
